# Experimental data pooled from the literature.
# Each numbered part is a random draw from the data of one study; scales do not carry over between parts.
# Chain of UniProt Q14164 (whole entry, looked up): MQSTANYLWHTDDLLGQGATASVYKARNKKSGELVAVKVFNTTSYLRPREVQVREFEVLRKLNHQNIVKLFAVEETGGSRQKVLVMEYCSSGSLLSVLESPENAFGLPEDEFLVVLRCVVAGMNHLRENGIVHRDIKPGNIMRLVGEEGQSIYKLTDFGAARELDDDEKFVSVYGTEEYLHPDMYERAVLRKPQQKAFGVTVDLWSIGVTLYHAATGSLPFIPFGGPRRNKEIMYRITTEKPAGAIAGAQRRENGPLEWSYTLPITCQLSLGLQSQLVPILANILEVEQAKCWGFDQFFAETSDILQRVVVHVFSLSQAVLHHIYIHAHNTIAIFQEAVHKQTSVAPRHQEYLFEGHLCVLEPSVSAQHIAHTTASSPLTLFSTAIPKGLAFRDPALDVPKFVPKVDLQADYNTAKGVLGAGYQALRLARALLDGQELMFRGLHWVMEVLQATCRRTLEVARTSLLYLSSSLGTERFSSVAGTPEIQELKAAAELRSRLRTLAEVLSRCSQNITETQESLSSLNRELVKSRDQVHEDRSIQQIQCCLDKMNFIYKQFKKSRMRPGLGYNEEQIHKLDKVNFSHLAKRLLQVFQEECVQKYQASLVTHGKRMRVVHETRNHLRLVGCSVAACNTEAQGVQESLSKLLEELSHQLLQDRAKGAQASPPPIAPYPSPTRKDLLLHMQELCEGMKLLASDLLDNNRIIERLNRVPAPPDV

# Block 1
# Cell line: A-375
# Tested at: 100 µM
# Time: 36 h
SMILES,viability [%]
CC(C)=CCC/C(C)=C/CC/C(C)=C/CC/C(C)=C/CC1=C(C)C(=O)c2ccccc2C1=O,51.7
CC(C)C[C@H](NC(=O)[C@@H](O)[C@H](N)Cc1ccccc1)C(=O)O,103
NC12CC3CC(CC(C3)C1)C2,122
CCN1CCCC1CNC(=O)c1cc(S(N)(=O)=O)ccc1OC (stereo not shown),108
C[C@H](CCC(=O)O)[C@H]1CC[C@H]2[C@@H]3CC[C@@H]4C[C@H](O)CC[C@]4(C)[C@H]3CC[C@]12C,88.8
NS(=O)(=O)Cc1noc2ccccc12,57.6
COC(=O)C1=C(C)NC(C)=C(C(=O)O[C@@H]2CCCN(Cc3ccccc3)C2)[C@@H]1c1cccc([N+](=O)[O-])c1 (racemic),16.2

# Block 2
# Target: Tyrosine-protein kinase Fes/Fps (FES, Homo sapiens, UniProt P07332)
# Chain of UniProt P07332 (whole entry, looked up): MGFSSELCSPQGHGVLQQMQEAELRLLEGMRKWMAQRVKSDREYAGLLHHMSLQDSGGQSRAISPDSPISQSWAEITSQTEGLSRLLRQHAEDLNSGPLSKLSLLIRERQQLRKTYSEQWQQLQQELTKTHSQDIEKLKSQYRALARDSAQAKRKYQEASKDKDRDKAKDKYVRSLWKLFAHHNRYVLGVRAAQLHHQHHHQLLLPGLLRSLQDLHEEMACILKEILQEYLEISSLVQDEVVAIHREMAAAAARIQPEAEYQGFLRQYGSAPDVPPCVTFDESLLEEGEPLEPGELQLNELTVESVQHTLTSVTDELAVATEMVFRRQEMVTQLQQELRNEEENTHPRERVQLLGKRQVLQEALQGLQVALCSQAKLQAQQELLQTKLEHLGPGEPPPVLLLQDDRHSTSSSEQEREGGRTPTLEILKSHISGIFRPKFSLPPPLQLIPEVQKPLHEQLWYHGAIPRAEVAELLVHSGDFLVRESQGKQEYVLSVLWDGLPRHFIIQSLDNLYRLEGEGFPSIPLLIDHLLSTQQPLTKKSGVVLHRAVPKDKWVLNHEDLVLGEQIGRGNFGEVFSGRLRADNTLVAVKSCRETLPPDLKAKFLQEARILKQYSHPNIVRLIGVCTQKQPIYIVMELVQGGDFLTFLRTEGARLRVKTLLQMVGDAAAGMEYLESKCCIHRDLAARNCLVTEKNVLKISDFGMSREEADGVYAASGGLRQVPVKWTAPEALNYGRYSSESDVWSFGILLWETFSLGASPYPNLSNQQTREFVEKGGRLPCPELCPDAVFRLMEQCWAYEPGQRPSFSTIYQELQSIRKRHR
# Observed: enzyme activity
# Action: inhibitor
# Tested at: 0.5 µM
# Reference: control
SMILES,remaining activity [%]
CCOC(=O)c1c(C)[nH]c(/C=C2\C(=O)Nc3ccccc32)c1C,99.3
OCC(O)CCON=C1C(c2c(O)[nH]c3ccccc23)=Nc2ccccc21 (stereo not shown),81.7
Cc1nc(-c2ccccc2)c(-c2ccncc2)o1,101
Cc1cccc(-c2[nH]c(C(C)(C)C)nc2-c2ccc3c(c2)OCO3)n1,108
O=c1c2ccccc2[nH]c(=S)n1CCN1CCC(=C(c2ccc(F)cc2)c2ccc(F)cc2)CC1,94.9
CN(C)c1ccc(C=C2C(=O)Nc3ccccc32)cc1,97.8
NCCNc1ncc(C(N)=O)c(Nc2cccc(C(F)(F)F)c2)n1,51.5
COc1cc2nccc(Oc3ccc(NC(=S)NC(=O)c4ccccc4C)cc3)c2cc1OC,96.7
COc1ccc(CNC(=O)Nc2ncc([N+](=O)[O-])s2)cc1,97.7
Cn1sc(=O)n(Cc2ccccc2)c1=O,101
O=S(=O)(c1cccc2cnccc12)N1CCCNCC1,121
Nc1[nH]nc2nc3ccccc3nc12,96.8
COc1ccc(OC)c2c(=S)c3ccccc3[nH]c12,102
Cc1ccc(NC(=O)c2ccc(CN3CCN(C)CC3)cc2)cc1Nc1nc(-c2cccnc2)cs1,105

# Block 3
# Species: mouse
# Matrix: microsomes or S9
# Tested at: 2 µM
# Time: 0.5 h
SMILES,remaining compound [%]
CN1CCN(Cc2ccc(-c3cn(C(=O)OC(C)(C)C)nc3C3CCCN(C(=O)OC(C)(C)C)C3)cc2)CC1 (stereo not shown),5.32
Clc1nc2cccnc2n2nc(-c3ccco3)cc12,1.32
Cc1c(C)n(C2CCCCC2)c2ncn(CCCO)c(=N)c12,44.5
COc1ccc(C#Cc2nc3ccc(C)cc3o2)cc1,49.3
CC(C)Oc1ccc(CN2C(=O)c3cc4ccsc4n3CC2(C)C(=O)NCc2ccc(F)cc2)cc1 (stereo not shown),79.2
O=c1[nH]c2ccc(NCc3ccc(-c4ccccc4)cc3)cc2[nH]1,34.5

# Other studies, line by line
# MAPK1: Mitogen-activated protein kinase 1 (MAPK1, Homo sapiens, UniProt P28482)
# Chain of UniProt P28482 (whole entry, looked up): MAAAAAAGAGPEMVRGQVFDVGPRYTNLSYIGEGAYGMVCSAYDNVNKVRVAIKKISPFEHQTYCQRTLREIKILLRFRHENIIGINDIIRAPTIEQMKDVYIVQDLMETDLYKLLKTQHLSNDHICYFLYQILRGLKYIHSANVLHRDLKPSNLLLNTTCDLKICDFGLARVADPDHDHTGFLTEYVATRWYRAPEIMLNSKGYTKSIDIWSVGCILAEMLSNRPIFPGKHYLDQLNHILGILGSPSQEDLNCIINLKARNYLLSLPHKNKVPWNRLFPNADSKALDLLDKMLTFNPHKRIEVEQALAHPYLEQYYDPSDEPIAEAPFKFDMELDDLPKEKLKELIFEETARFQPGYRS
SMILES,target or system,observed,method,tested at,reference,measurement,result
CN(C)C(=O)/C(C#N)=C/c1ccc(-c2nc3cnc4c(ccn4C)c3n2C2CCCCC2)o1,sample B colorectal tumour organoid,,,0.1 µM,DMSO,viability,121%
CN(C)c1ncnc(-c2ccc3nc(Nc4cc(CN5CCN(C(=O)CC(F)(F)F)CC5)ccn4)[nH]c3c2)c1Cl,"Inhibitor of nuclear factor kappa-B kinase subunit epsilon (IKBKE, Homo sapiens, UniProt Q14164)",target engagement in cells,BRET,,,IC50,> 27 µM
C[C@H](NC(=O)Nc1cc2[nH]ncc2c(CO)n1)c1ccccn1,MAPK1,target engagement in cells,BRET,,,IC50,> 10 µM
C[C@@H](NC(=O)Nc1cc2[nH]ncc2c(CO)n1)c1ccccc1,MAPK1,target engagement in cells,BRET,,,IC50,0.28 to 0.85 µM
